Measurements pooled from the literature.
Compare with care: the assays were run in different laboratories. ± marks the error that the study gave.

Substance	tested on	test	test system	conditions	how to read	endpoint	value
Polymyxin B	Staphylococcus aureus	–	KCTC 1621	16 h, 37 °C, Mueller-Hinton broth	–	MIC	> 128 µM
DAPT	Staphylococcus aureus	–	ATCC BAA-1556, MRSA	–	–	MIC	1.5 mg/L
colistin	Staphylococcus aureus	–	1199B NorA overexpressing	compound alone	–	MIC	inactive
Teicoplanin A2-2	Staphylococcus aureus	–	methicillin-susceptible	–	–	MIC	0.5 mg/L
insulin human	–	item: EPHA7 mRNA	EcoHIV-infected mouse, brain	i.p., dose not given	baseline: PBS	fold change	1.08
benzalkonium chloride	Staphylococcus aureus	–	MRSA ATCC 33591	dark and light identical	–	MIC	> 640 µM
thiostrepton	Staphylococcus aureus	–	methicillin-resistant	–	–	MIC	≤ 0.03 mg/L
vancomycin	Staphylococcus aureus	–	–	–	–	IC50	0.8 ± 0.1 µM
melittin	Staphylococcus aureus	resazurin reduction	MRSA NCTC 12493	–	–	respiration-enhancing concentration	2 µM
ceftiofur sodium	Staphylococcus aureus	–	USA300	combination, median and range, with: OA 32 µg/mL	–	MIC	2 mg/L
tunicamycin	Staphylococcus aureus	EUCAST broth microdilution	Mu50 MRSA VISA	18-24 h, 37 °C	–	MIC	64 mg/L

A few entries again:
Substance	tested on	test	test system	conditions	how to read	endpoint	value
thiostrepton	Staphylococcus aureus	–	methicillin-resistant	–	–	MIC	≤ 0.03 mg/L
vancomycin	Staphylococcus aureus	–	–	–	–	IC50	0.8 ± 0.1 µM
